Measurements from different studies.
Parts stem from different laboratories: compare values within a part only.
UniProt P49759, sequence (whole entry, looked up): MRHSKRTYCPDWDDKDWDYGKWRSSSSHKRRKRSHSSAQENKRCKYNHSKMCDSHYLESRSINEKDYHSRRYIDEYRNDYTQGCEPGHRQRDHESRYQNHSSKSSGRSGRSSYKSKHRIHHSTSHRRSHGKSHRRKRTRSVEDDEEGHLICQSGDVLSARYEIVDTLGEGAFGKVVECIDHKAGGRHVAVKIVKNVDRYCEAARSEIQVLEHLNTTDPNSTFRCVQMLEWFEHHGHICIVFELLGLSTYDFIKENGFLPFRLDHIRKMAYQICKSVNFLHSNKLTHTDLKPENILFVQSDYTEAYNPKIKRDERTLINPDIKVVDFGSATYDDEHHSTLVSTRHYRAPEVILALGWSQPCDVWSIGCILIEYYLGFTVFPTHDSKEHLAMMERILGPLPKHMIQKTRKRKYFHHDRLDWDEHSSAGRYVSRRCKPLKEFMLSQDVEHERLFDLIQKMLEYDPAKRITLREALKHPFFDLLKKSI
UniProt Q05655, sequence (whole entry, looked up): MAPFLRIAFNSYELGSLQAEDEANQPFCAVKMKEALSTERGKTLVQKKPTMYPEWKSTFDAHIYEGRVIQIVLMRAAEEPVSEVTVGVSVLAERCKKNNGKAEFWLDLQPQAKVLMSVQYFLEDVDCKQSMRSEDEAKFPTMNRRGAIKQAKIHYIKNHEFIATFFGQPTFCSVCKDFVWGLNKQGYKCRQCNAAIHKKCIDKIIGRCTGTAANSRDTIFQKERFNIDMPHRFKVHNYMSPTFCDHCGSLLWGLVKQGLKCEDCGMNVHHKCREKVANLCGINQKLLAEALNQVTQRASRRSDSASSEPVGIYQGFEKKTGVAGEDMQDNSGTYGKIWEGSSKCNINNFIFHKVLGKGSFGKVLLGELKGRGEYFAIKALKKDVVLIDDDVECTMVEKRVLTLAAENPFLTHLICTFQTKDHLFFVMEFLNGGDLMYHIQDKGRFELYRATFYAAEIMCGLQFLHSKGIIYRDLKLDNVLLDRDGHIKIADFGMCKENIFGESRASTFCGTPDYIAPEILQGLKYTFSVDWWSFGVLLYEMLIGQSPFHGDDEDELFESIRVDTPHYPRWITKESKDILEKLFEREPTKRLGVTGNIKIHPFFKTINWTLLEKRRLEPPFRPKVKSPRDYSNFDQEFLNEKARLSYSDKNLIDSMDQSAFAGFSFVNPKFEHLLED
UniProt Q9H2K8, sequence (whole entry, looked up): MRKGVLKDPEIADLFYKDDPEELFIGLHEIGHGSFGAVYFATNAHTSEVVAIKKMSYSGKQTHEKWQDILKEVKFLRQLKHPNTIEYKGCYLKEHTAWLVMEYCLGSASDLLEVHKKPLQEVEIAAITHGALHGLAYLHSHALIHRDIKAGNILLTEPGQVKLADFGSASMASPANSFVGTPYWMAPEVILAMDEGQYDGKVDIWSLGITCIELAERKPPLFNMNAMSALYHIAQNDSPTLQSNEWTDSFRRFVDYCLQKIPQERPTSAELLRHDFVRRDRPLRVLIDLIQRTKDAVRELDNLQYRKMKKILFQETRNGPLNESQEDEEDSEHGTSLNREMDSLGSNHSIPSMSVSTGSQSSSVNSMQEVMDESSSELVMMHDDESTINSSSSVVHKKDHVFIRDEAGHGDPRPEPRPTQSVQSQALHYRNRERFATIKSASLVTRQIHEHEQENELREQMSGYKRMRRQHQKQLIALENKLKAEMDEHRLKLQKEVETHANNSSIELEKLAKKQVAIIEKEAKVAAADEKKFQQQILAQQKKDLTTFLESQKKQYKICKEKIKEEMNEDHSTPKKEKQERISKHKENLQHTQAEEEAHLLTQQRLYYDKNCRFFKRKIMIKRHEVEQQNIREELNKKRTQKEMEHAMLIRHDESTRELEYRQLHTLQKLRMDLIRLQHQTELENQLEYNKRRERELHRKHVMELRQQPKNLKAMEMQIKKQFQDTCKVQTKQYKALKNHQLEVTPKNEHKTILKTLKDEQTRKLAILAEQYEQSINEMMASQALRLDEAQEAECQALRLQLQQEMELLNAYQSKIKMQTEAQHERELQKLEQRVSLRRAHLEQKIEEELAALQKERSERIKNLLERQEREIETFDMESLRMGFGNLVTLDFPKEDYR
UniProt Q13043, sequence (whole entry, looked up): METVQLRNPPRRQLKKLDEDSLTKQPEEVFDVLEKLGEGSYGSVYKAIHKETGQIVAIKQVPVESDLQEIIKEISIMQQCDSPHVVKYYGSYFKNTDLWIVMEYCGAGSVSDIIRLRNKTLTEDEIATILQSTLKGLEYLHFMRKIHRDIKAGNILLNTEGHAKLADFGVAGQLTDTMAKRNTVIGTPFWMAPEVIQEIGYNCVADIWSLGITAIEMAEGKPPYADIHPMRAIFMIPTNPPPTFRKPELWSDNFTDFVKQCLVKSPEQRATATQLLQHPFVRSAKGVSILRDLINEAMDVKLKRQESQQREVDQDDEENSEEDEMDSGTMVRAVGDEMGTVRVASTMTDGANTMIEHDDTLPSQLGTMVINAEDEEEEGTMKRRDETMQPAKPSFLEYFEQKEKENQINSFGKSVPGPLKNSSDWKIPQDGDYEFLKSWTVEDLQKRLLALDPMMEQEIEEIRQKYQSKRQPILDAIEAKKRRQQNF
UniProt P49674, sequence (whole entry, looked up): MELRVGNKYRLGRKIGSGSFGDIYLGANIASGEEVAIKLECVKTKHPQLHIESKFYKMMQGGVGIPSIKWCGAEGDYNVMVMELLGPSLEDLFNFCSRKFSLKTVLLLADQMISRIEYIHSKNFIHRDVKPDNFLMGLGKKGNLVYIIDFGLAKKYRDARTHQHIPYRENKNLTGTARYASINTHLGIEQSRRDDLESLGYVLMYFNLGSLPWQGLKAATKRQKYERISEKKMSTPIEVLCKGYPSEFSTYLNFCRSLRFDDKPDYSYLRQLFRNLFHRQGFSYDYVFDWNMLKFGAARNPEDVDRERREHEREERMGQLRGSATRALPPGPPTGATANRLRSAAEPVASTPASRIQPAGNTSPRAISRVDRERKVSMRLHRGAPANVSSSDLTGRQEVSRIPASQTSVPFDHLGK
UniProt Q9UBE8, sequence (whole entry, looked up): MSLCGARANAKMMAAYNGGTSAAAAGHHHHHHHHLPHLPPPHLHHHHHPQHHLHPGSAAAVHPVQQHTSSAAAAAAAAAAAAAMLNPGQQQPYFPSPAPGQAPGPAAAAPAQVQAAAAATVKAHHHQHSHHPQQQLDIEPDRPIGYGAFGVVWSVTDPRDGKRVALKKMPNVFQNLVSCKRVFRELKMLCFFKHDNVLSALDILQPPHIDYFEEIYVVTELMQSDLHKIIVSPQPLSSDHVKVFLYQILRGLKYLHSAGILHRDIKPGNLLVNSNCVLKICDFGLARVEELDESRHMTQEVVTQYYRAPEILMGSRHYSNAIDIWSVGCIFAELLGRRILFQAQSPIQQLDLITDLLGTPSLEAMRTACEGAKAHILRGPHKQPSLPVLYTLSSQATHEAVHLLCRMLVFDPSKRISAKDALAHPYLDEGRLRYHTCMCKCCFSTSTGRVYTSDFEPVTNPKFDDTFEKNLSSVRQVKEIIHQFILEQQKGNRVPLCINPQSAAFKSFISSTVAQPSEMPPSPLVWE
UniProt Q96RR4, sequence (whole entry, looked up): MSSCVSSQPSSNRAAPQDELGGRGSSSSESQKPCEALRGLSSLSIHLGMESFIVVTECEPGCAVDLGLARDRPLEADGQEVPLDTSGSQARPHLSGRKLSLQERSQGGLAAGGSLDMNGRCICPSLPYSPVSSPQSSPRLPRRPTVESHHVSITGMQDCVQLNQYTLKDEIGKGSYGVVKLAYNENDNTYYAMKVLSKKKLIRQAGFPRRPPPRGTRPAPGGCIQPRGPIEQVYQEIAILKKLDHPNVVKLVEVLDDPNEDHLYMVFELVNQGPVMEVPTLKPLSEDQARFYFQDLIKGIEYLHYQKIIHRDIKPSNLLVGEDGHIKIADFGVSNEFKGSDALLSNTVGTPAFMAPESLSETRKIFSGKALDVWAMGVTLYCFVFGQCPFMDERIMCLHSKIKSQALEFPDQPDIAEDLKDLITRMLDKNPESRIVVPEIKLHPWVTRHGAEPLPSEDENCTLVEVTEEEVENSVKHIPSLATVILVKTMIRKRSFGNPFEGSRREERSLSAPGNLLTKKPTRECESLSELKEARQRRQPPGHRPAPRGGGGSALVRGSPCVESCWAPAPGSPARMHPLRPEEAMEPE
UniProt Q8TDX7, sequence (whole entry, looked up): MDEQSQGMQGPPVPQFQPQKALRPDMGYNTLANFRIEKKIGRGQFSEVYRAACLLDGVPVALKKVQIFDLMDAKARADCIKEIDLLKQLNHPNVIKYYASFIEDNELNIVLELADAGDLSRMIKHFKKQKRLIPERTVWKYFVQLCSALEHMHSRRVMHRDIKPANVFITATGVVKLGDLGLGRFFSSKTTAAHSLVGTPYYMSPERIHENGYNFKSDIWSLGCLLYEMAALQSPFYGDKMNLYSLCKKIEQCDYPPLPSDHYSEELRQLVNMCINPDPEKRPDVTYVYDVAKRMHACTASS

Block 1 — effect on: enzyme activity; mode: inhibitor; concentration: 0.5 µM; relative to: control
Target: RAF proto-oncogene serine/threonine-protein kinase (RAF1, Homo sapiens, UniProt P04049)
UniProt P04049, sequence (whole entry, looked up): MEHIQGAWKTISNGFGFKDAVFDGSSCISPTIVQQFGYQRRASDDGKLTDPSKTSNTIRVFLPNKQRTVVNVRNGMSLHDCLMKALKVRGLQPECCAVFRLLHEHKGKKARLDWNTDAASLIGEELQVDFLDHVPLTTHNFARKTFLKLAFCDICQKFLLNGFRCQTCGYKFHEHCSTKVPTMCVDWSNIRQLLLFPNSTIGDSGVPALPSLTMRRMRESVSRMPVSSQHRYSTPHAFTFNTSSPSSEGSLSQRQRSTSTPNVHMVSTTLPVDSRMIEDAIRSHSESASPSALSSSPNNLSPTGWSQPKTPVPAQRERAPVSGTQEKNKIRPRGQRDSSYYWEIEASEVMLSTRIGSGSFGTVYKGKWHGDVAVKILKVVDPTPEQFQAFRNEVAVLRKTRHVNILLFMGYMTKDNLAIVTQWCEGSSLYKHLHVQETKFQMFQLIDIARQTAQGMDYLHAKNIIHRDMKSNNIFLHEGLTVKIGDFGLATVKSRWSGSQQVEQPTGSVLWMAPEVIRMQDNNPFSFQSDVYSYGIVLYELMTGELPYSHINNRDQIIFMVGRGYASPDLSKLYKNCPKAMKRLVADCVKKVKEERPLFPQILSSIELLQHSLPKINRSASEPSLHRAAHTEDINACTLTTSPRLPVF
Structure (SMILES) | remaining activity
Ic1cccc(CSc2nnc(-c3ccncc3)o2)c1 | 92.8%
CN(C)C[C@H]1CCn2c(c(C3=C(c4cn(C)c5ccccc45)C(=O)NC3=O)c3ccccc32)C1 | 96.6%
O=C1C(Cl)=C(N2C(=O)CCC2=O)C(=O)c2ccccc21 | 93%
N#Cc1c(NC(=O)c2cccc3ccccc23)sc2c1CCCC2 | 92.9%
CCOc1nc(NC(=O)Cc2cc(OC)ccc2OC)cc(N)c1C#N | 91.8%
COc1cc2ncnc(Nc3cccc(Cl)c3)c2cc1OC | 78.4%
O=c1cc(-c2cccc3c2Sc2ccccc2S3)oc(N2CCOCC2)c1 | 94.7%
Nc1cccc(-c2cc3c(Oc4cccc(O)c4)ncnc3[nH]2)c1 | 85.9%
Cn1nc2c3c(cccc31)C(=O)c1ccccc1-2 | 87%
O=C(NC(NC(=S)Nc1ccc(F)c([N+](=O)[O-])c1)C(Cl)(Cl)Cl)C(c1ccccc1)c1ccccc1 (stereo not shown) | 95.3%
COc1cc2ncnc(Nc3ccc(O)c(Br)c3)c2cc1OC | 92.1%
c1ccc(-c2[nH]ncc2-c2ccnc3ccccc23)nc1 | 89.5%
CCN(CC)CCNC(=O)c1c(C)[nH]c(/C=C2\C(=O)Nc3ccc(Cl)cc32)c1C | 117%
CN([C@@H](Cc1ccc(OS(=O)(=O)c2cccc3cnccc23)cc1)C(=O)N1CCN(c2ccccc2)CC1)S(=O)(=O)c1cccc2cnccc12 | 96.9%
N#C/C(=C\c1ccc(O)c(O)c1)C(=O)NCc1ccccc1 | 92.8%
Cc1cc2ncc(-c3ccccc3)nc2cc1C | 95.6%
Cc1nc2cc3nc(-c4cccs4)cnc3cc2n1C | 104%
CCN(CC)C(=O)c1ccc(Nc2nc(OCC3CCCCC3)c3[nH]cnc3n2)cc1 | 86.3%
O=C1c2ccccc2-c2n[nH]c3cccc1c23 | 88.2%
c1ccc(-c2cnc(Nc3ccc(OCCN4CCCC4)cc3)s2)cc1 | 99%

Block 2 — effect on: cell-free assay; technique: competition with immobilised ligand; concentration: 1 µM
Structure (SMILES): CC(=O)N1CCC(c2ccc(C(=O)NC3=NCCN3)cc2C(F)(F)F)CC1
target | remaining binding [%]
EGFR (Homo sapiens, UniProt P00533, G719S) | 100
MAP2K7 (Homo sapiens, UniProt O14733) | 100
STK4 (Homo sapiens, UniProt Q13043) | 100
EGFR (Homo sapiens, UniProt P00533, L861Q) | 100
YES1 (Homo sapiens, UniProt P07947) | 100
MAP4K5 (Homo sapiens, UniProt Q9Y4K4) | 100
PRKCD (Homo sapiens, UniProt Q05655) | 100
ERBB3 (Homo sapiens, UniProt P21860) | 94
PIK3CA (Homo sapiens, UniProt P42336, H1047Y) | 100
CDKL1 (Homo sapiens, UniProt Q00532) | 100
MAP3K14 (Homo sapiens, UniProt Q99558) | 95
TNK1 (Homo sapiens, UniProt Q13470) | 84
NLK (Homo sapiens, UniProt Q9UBE8) | 100
CLK1 (Homo sapiens, UniProt P49759) | 100
CAMK2A (Homo sapiens, UniProt Q9UQM7) | 94
Tyrosine-protein kinase ABL1, non-phosphorylated (ABL1, Homo sapiens, UniProt P00519, H396P) | 100
NEK10 (Homo sapiens, UniProt Q6ZWH5) | 93
HIPK1 (Homo sapiens, UniProt Q86Z02) | 91
LATS2 (Homo sapiens, UniProt Q9NRM7) | 91
SBK3 (Homo sapiens, UniProt P0C264) | 100
STK3 (Homo sapiens, UniProt Q13188) | 100
SGK3 (Homo sapiens, UniProt Q96BR1) | 82
DDR1 (Homo sapiens, UniProt Q08345) | 100
RAF1 (Homo sapiens, UniProt P04049) | 100
PIK3C2B (Homo sapiens, UniProt O00750) | 50

Block 3 — concentration: 1 µM
SMILES: COc1ccc2[nH]c3c4[nH]c5ccc(OC)cc5c4c4c(c3c2c1)C(=O)NC4=O
target | test | setting | scale | remaining binding
ABL1 (Homo sapiens, UniProt P00519, F317L) | competitive binding panel |  | relative to: vehicle | 84%
PRKCD (Homo sapiens, UniProt Q05655) | competitive binding panel |  | relative to: vehicle | 93%
PIK3C3 (Homo sapiens, UniProt Q8NEB9) | competitive binding panel, measured: VPS34 |  | relative to: vehicle | 80%
PLK3 (Homo sapiens, UniProt Q9H4B4) | competitive binding panel |  | relative to: vehicle | 88%
CSNK1E (Homo sapiens, UniProt P49674) | competitive binding panel |  | relative to: vehicle | 52%
PLK4 (Homo sapiens, UniProt O00444) | competitive binding panel |  | relative to: vehicle | 1.4%
CDK19 (Homo sapiens, UniProt Q9BWU1) | competitive binding panel, measured: CDK11 |  | relative to: vehicle | 100%
SYK (Homo sapiens, UniProt P43405) | competitive binding panel |  | relative to: vehicle | 73%
MAP2K1 (Homo sapiens, UniProt Q02750) | competitive binding | MEK1 |  | 70%
NEK7 (Homo sapiens, UniProt Q8TDX7) | competitive binding panel |  | relative to: vehicle | 92%
TAOK3 (Homo sapiens, UniProt Q9H2K8) | competitive binding panel |  | relative to: vehicle | 96%
FLT4 (Homo sapiens, UniProt P35916) | competitive binding panel |  | relative to: vehicle | 71%
STK35 (Homo sapiens, UniProt Q8TDR2) | competitive binding panel |  | relative to: vehicle | 80%
CLK1 (Homo sapiens, UniProt P49759) | competitive binding panel |  | relative to: vehicle | 80%
MST1R (Homo sapiens, UniProt Q04912) | competitive binding panel |  | relative to: vehicle | 93%
CAMKK2 (Homo sapiens, UniProt Q96RR4) | competitive binding panel |  | relative to: vehicle | 74%
PKN1 (Homo sapiens, UniProt Q16512) | competitive binding panel |  | relative to: vehicle | 42%

Block 4 — cell line: Huh-7; concentration: 10 µM; time: 24 h
SMILES | viability [%]
CCc1oc2ccccc2c1C(=O)c1cc(Br)c(O)c(Br)c1 | 87.3
c1ccc2c(c1)CCCC2C1=NCCN1 (stereo not shown) | 99.9
O=C(OOC(=O)c1ccccc1)c1ccccc1 | 101
CCN(CCO)CCCC(C)Nc1ccnc2cc(Cl)ccc12 (stereo not shown) | 96.3
S=P(N1CC1)(N1CC1)N1CC1 | 64.5
Nc1ncnc2nc[nH]c12 | 96.6
CO[C@H]1/C=C/O[C@@]2(C)Oc3c(C)c(O)c4c(O)c(c(/C=N/N5CCN(C)CC5)c(O)c4c3C2=O)NC(=O)/C(C)=C\C=C\[C@H](C)[C@H](O)[C@@H](C)[C@@H](O)[C@@H](C)[C@H](OC(C)=O)[C@@H]1C | 97
CC(=O)Oc1ccccc1C(=O)O | 96.2
C[C@H](CS)C(=O)N1CCC[C@H]1C(=O)O | 96.9
O=C(/C=C/C=C/c1ccc2c(c1)OCO2)N1CCCCC1 | 98.9
Cc1cc2nc3c(=O)[nH]c(=O)nc-3n(C[C@H](O)[C@H](O)[C@H](O)CO)c2cc1C | 101
CCN(CC)CCNC(=O)c1cc(S(C)(=O)=O)ccc1OC | 85.7
C[C@@](Cc1ccc(O)c(O)c1)(NN)C(=O)O | 94.1
COc1ccccc1OCC(O)COC(N)=O (stereo not shown) | 92.1

Excerpt of the above (block 2):
target | remaining binding [%]
PIK3CA (Homo sapiens, UniProt P42336, H1047Y) | 100
CDKL1 (Homo sapiens, UniProt Q00532) | 100
MAP3K14 (Homo sapiens, UniProt Q99558) | 95
TNK1 (Homo sapiens, UniProt Q13470) | 84
NLK (Homo sapiens, UniProt Q9UBE8) | 100
